Results gathered from unrelated publications.
Protocols differ between the studies behind these lines. Values joined by “and” are separate records of one study, mostly repeats; a detail may differ. ± gives the spread as reported.

Structure (SMILES) = COc1ccc(-c2cnnn2-c2cc(OC)c(OC)c(OC)c2)cc1N; tested on = RKO; test = cytotoxicity, nuclei counting; setting = 24 h; measurement = EC50; result = 9.47 ± 0.59 nM
Structure (SMILES) = Cc1cc(/C=C/C#N)cc(C)c1-n1cnc2cnc(Nc3ccc(C#N)cc3)nc21; tested on = HIV-1; test = viral replication, single-round infection; test system = RT mutant E40K; measurement = EC50; result = 0.5 ± 0.1 nM
Structure (SMILES) = COCC(C)N1CCn2cc(C(=O)NCc3ccc(F)cc3F)c(=O)c(O)c2C1=O (stereo not drawn); tested on = human immunodeficiency virus 1; test = single-round vector infection; test system = integrase S230N; measurement = EC50; result = 14.4 ± 3.2 nM
Structure (SMILES) = Cc1ccc(NS(=O)(=O)c2c(C(=O)N3CCCCCC3)c(C)n(C)c2C)c(Cl)c1; tested on = Monkeypox virus; test system = Vero C1008, wild type; setting = 0.12 µM, 72 h; scale = relative to: untreated; measurement = relative infection; result = 74% and 84%
Structure (SMILES) = CC[C@H](C)[C@H](NC(=O)[C@H](Cc1ccccc1)NC(=O)[C@@H](NC(=O)[C@@H](NC(=O)[C@H](CC(C)C)NC(=O)[C@H](CCCCN)NC(=O)[C@@H](N)CCCCN)[C@@H](C)CC)[C@@H](C)O)C(=O)N[C@@H](CC(C)C)C(=O)N[C@@H](CCCCN)C(=O)N[C@@H](CCCCN)C(=O)N[C@H](C(=O)N[C@@H](CCCNC(=N)N)C(=O)N[C@@H](CCC(=O)O)C(=O)N[C@@H](CCCCN)C(=O)N[C@@H](CCCCN)C(=O)N[C@@H](CCCCN)C(=O)N[C@@H](CCC(=O)O)C(=O)N[C@@H](CS)C(=O)N[C@@H](CC(C)C)C(=O)N[C@H](C(=O)O)C(C)C)[C@@H](C)O; tested on = TTX-sensitive sodium channel (mouse); test = resurgent sodium current, open-channel blocker, whole-cell patch clamp; test system = mouse hippocampal CA3 neurons; setting = 200 µM intracellular, 22 °C, step to +30 mV, 10 ms, together with: repolarisation to -30 mV; measurement = decay time constant; result = 12.3 ± 0.6 ms
Structure (SMILES) = CC(C)CC(C)N1CCn2cc(C(=O)NCc3ccc(F)cc3F)c(=O)c(O)c2C1=O (stereo not drawn); tested on = human immunodeficiency virus 1; test = single-round vector infection; test system = integrase S230N; measurement = EC50; result = 12.8 ± 3.7 nM
Structure (SMILES) = Nc1ccn(C2CCC(OC(C(=O)O)P(=O)(O)O)C2)c(=O)n1 (racemic); tested on = HIV-1 reverse transcriptase Q151M; test = enzyme activity, inhibitor; setting = together with: poly(rI)·oligo(dC), [3H]dCTP; scale = relative to: mutant over wild type; measurement = fold resistance; result = 0.4 fold
Structure (SMILES) = CC(C)n1ccn2cc(C(=O)NCc3ccc(F)cc3F)c(=O)c(O)c2c1=O; tested on = HIV-1; test = viral replication, single-round vector infection; test system = IN G140S/Q148R; measurement = EC50; result = 15.3 ± 1 nM
Structure (SMILES) = CCCCCCCCCCCCCCCCCC(=O)N[C@@H](CCC(=O)NCCCC[C@H](NC(=O)[C@H](CCC(N)=O)NC(=O)[C@H](CCCCN)NC(=O)[C@H](CO)NC(=O)[C@H](CC(C)C)NC(=O)[C@H](CC(=O)O)NC(=O)[C@H](CO)NC(=O)[C@@H](NC(=O)[C@H](Cc1ccccc1)NC(=O)[C@@H](NC(=O)CNC(=O)[C@H](CCC(N)=O)NC(=O)[C@@H](CO)NC(=O)[C@@H](N)Cc1c[nH]cn1)[C@@H](C)O)[C@@H](C)O)C(=O)N[C@@H](CC(=O)O)C(=O)N[C@@H](CCC(=O)O)C(=O)N[C@@H](CCC(N)=O)C(=O)N[C@@H](CC(C)C)C(=O)N[C@@H](C)C(=O)N[C@@H](CCCCN)C(=O)N[C@@H](CC(=O)O)C(=O)N[C@@H](Cc1ccccc1)C(=O)N[C@H](C(=O)N[C@@H](CCC(=O)O)C(=O)N[C@@H](Cc1c[nH]c2ccccc12)C(=O)N[C@@H](CC(C)C)C(=O)N[C@@H](CCCCN)C(=O)N[C@@H](C)C(=O)NCC(=O)NCC(=O)N1CCC[C@H]1C(=O)N[C@@H](CO)C(=O)N[C@@H](CO)C(=O)NCC(=O)N[C@@H](C)C(=O)N1CCC[C@H]1C(=O)N1CCC[C@H]1C(=O)N1CCC[C@H]1C(=O)N[C@@H](CO)C(N)=O)[C@@H](C)CC)C(=O)O; test system = cynomolgus monkey, obese diabetic; setting = dose not given, level returned to on chronic treatment; measurement = blood glucose; result = ~120 mg/dL
Structure (SMILES) = Cc1cc(/C=C/C#N)cc(C)c1Nc1nc(Nc2ccc(C#N)cc2)ncc1N; tested on = HIV-1; test = viral replication, single-round infection; test system = RT mutant V106A/F227L/L234I; measurement = EC50; result = 0.4 ± 0.1 nM
Structure (SMILES) = COCCCn1ccn2cc(C(=O)NCc3ccc(F)cc3F)c(=O)c(O)c2c1=O; tested on = human immunodeficiency virus 1; test = single-round vector infection; test system = integrase R263K; measurement = EC50; result = 2.6 ± 0.1 nM
Structure (SMILES) = Nc1ncnc2c1ncn2C1CCC(OC(C(=O)O)P(=O)(O)O)C1 (racemic); tested on = HIV-1 reverse transcriptase F61A; test = enzyme activity, inhibitor; setting = together with: poly(rU)·oligo(dA), [3H]dATP; scale = relative to: mutant over wild type; measurement = fold resistance; result = 3.9 fold
Structure (SMILES) = CN1CCn2cc(C(=O)NCc3ccc(F)cc3F)c(=O)c(O)c2C1=O; tested on = human immunodeficiency virus 1; test = single-round vector infection; test system = integrase G118R; measurement = EC50; result = 19.7 ± 1.8 nM
Structure (SMILES) = CC[C@H](C)[C@H](NC(=O)[C@H](CCCCN)NC(=O)[C@H](Cc1ccc(O)cc1)NC(=O)[C@H](CCC(N)=O)NC(=O)[C@H](Cc1c[nH]cn1)NC(=O)[C@@H](NC(=O)[C@H](Cc1ccccc1)NC(=O)[C@H](Cc1c[nH]cn1)NC(=O)[C@@H](NC(=O)[C@@H](NC(=O)CNC(=O)[C@H](CCCNC(=N)N)NC(=O)[C@H](Cc1c[nH]c2ccccc12)NC(=O)[C@H](CC(C)C)NC(=O)[C@H](CO)NC(=O)[C@H](CCC(=O)O)NC(=O)[C@H](CC(C)C)NC(=O)[C@H](CCC(=O)O)NC(=O)[C@H](CC(N)=O)NC(=O)[C@H](CC(C)C)NC(=O)[C@H](CC(=O)O)NC(=O)[C@H](CO)NC(=O)[C@H](CCC(=O)O)NC(=O)[C@@H](NC(=O)[C@H](CC(C)C)NC(=O)[C@H](CCC(N)=O)NC(=O)[C@H](CCC(=O)O)NC(=O)[C@H](CCC(=O)O)NC(=O)[C@H](CC(C)C)NC(=O)[C@@H]1CCCN1C(=O)[C@@H](N)Cc1ccccc1)[C@@H](C)O)[C@@H](C)O)[C@@H](C)O)C(C)C)C(=O)N[C@@H](CCSC)C(=O)N1CCC[C@H]1C(=O)N[C@@H](Cc1ccccc1)C(=O)N[C@@H](CCCNC(=N)N)C(=O)N[C@@H](CCCCN)C(=O)N[C@@H](CC(C)C)C(=O)N[C@H](C(=O)N[C@@H](Cc1ccccc1)C(=O)N[C@@H](CCCCN)C(=O)N[C@@H](CCCNC(=N)N)C(=O)N[C@@H](CCCNC(=N)N)C(=O)N[C@@H](CCCCN)C(=O)N[C@@H](CC(N)=O)C(N)=O)C(C)C; tested on = Staphylococcus aureus; test = broth microdilution; test system = MRSA ATCC 33592; measurement = MIC; result = > 50 µM
Structure (SMILES) = CC[C@@H](C)[C@@H](NC(=O)[C@@H](CCCCN)NC(=O)[C@@H](CCCCN)NC(=O)[C@@H](CC(C)C)NC(=O)[C@@H](Cc1c[nH]c2ccccc12)NC(=O)CN)C(=O)NCC(=O)N[C@H](CCCCN)C(=O)N[C@H](CCCCN)C(=O)N[C@@H](C(=O)N[C@H](CCC(=O)O)C(=O)N[C@H](CCCNC(=N)N)C(=O)N[C@@H](C(=O)NCC(=O)N[C@H](CCC(N)=O)C(=O)N[C@H](Cc1c[nH]cn1)C(=O)N[C@@H](C(=O)N[C@H](CCCNC(=N)N)C(=O)N[C@H](CC(=O)O)C(=O)N[C@H](C)C(=O)N[C@@H](C(=O)N[C@@H](C(=O)N[C@H](CCC(N)=O)C(=O)N[C@@H](C(=O)N[C@@H](C(=O)NCC(=O)N[C@@H](C(=O)N[C@H](C)C(=O)N[C@H](CCC(N)=O)C(=O)N[C@H](CCC(N)=O)C(=O)N[C@H](C)C(=O)N[C@H](C)C(=O)N[C@H](CC(N)=O)C(=O)N[C@@H](C(=O)N[C@H](C)C(=O)N[C@H](C)C(=O)N[C@@H](C(=O)N[C@H](CC(C)C)C(=O)N[C@H](CCCCN)C(N)=O)[C@H](C)O)C(C)C)C(C)C)[C@H](C)CC)[C@H](C)O)[C@H](C)CC)[C@H](C)O)[C@H](C)O)C(C)C)[C@H](C)CC; tested on = Klebsiella pneumoniae; test system = isolate RKI 93/10, CAMHB; measurement = MIC; result = > 1020 µg/mL

Some of these lines once more:
Structure (SMILES) = CC[C@@H](C)[C@@H](NC(=O)[C@@H](CCCCN)NC(=O)[C@@H](CCCCN)NC(=O)[C@@H](CC(C)C)NC(=O)[C@@H](Cc1c[nH]c2ccccc12)NC(=O)CN)C(=O)NCC(=O)N[C@H](CCCCN)C(=O)N[C@H](CCCCN)C(=O)N[C@@H](C(=O)N[C@H](CCC(=O)O)C(=O)N[C@H](CCCNC(=N)N)C(=O)N[C@@H](C(=O)NCC(=O)N[C@H](CCC(N)=O)C(=O)N[C@H](Cc1c[nH]cn1)C(=O)N[C@@H](C(=O)N[C@H](CCCNC(=N)N)C(=O)N[C@H](CC(=O)O)C(=O)N[C@H](C)C(=O)N[C@@H](C(=O)N[C@@H](C(=O)N[C@H](CCC(N)=O)C(=O)N[C@@H](C(=O)N[C@@H](C(=O)NCC(=O)N[C@@H](C(=O)N[C@H](C)C(=O)N[C@H](CCC(N)=O)C(=O)N[C@H](CCC(N)=O)C(=O)N[C@H](C)C(=O)N[C@H](C)C(=O)N[C@H](CC(N)=O)C(=O)N[C@@H](C(=O)N[C@H](C)C(=O)N[C@H](C)C(=O)N[C@@H](C(=O)N[C@H](CC(C)C)C(=O)N[C@H](CCCCN)C(N)=O)[C@H](C)O)C(C)C)C(C)C)[C@H](C)CC)[C@H](C)O)[C@H](C)CC)[C@H](C)O)[C@H](C)O)C(C)C)[C@H](C)CC; tested on = Klebsiella pneumoniae; test system = isolate RKI 93/10, CAMHB; measurement = MIC; result = > 1020 µg/mL
